Assay results from different studies.
± gives the spread as reported.

Compound = CCCCCCCCCCCCCC(=O)N[C@H](CCN)C(=O)N[C@@H]1C(=O)N[C@@H](CCN)C(=O)N[C@@H](CC(C)C)C(=O)N[C@@H](CCN)C(=O)N[C@H](Cc2ccccc2)C(=O)N[C@@H](CC(C)C)C(=O)N[C@@H](CCN)C(=O)N[C@H](CCN)C(=O)N[C@@H](C(C)C)C(=O)N[C@@H](CC(=O)O)C(=O)O[C@@H]1C; test system = rat, plasma; conditions = subcutaneous, 10 mg/kg; quantity = bioavailability; result = 102%
Compound = CC[C@H](C)[C@H](NC(=O)[C@H](CCCCN)NC(=O)[C@H](Cc1ccccc1)NC(=O)[C@H]1CCC[C@@H]1NC(=O)CN)C(=O)N[C@@H](C)CC(=O)N[C@@H](CCCCN)C(=O)N[C@@H](CCCCN)C(=O)N[C@H]1CCC[C@@H]1C(=O)N[C@H](C(=O)N[C@@H](CCCCN)C(=O)N[C@@H](CO)C(=O)N[C@H](CC(N)=O)Cc1ccccc1)C(C)C; assay = RP-HPLC C18; conditions = hydrophobicity; quantity = retention time; result = 15.38 ± 0.08 min
Compound = COc1ccc(C)cc1NC(=O)OC1CC2CCCC(C1)N2Cc1ccc(CC[18F])cc1 (stereo not drawn); test system = mouse, blood; conditions = 1 h, tumour-bearing; quantity = tracer uptake; result = 0.93 %ID/g
Compound = CCC[C@@H]1O[C@@H]2C[C@H]3[C@@H]4C[C@H](F)C5=CC(=O)CC[C@]5(C)[C@@]4(F)[C@@H](O)C[C@]3(C)[C@]2(C(=O)CO)O1; assay = refers to: parent steroid; test system = CD1 mice, plasma; conditions = intravenous, 0.15 mg/kg, with: budesonide 0.2 mg/kg; quantity = AUC; result = 0.072 µM·h
Compound = O=C(O)CCC(NP(=O)(O)OCCC[C@@H](NC(=O)CCC(NC(=O)CCCCCNC(=O)c1ccc([18F])cc1)C(=O)O)C(=O)O)C(=O)O (stereo partly drawn); assay = radioactivity; test system = mouse, CWR22Rv1 xenograft, tumour; conditions = 1 h; quantity = tumour uptake; result = 3.16%
Compound = CC(=O)CCC1C(=O)NC(C(C)C)C(=O)NC(Cc2cc(O)cc(F)c2)C(=O)N2CCCC(N2)C(=O)OC(C(C)=CC=CC(=O)N2CCCCO2)CC=CC=CC(O)C(C)C1O (stereo not drawn); assay = dialysis; test system = human plasma; conditions = 1 µM, 5 h, 37 °C; quantity = unbound fraction; result = 0.22
Compound = CC(=CCC(O)C(C)=Cc1csc(C)n1)CC=CC(C)C(O)C(C)C(=O)C(C)(C)C(O)CC(=O)O (stereo not drawn); test system = human, plasma; conditions = intravenous infusion, 36 mg/m2 KOS-1584, 3 h infusion, cycle 1; quantity = Tmax; result = 3.38 ± 0.48 h
Compound = CC(C)[C@H](NC(=O)CNC(=O)[C@H](CCC(N)=O)NC(=O)[C@H](C)N)C(=O)O; test system = human; conditions = 30 mg/kg single dose; quantity = subjects with any adverse event; result = 16.7%
Compound = CC[C@H](C)[C@H](NC(=O)[C@H](CCCCN)NC(=O)CNC(=O)[C@H](CC(C)C)NC(=O)[C@@H](NC(=O)[C@H](C)NC(=O)[C@H](CCCCN)NC(=O)CNC(=O)[C@H](C)NC(=O)CNC(=O)[C@H](CCCCN)NC(=O)[C@H](CCSC)NC(=O)[C@H](CCCCN)NC(=O)[C@@H](NC(=O)[C@H](Cc1c[nH]c2ccccc12)NC(=O)[C@H](CC(C)C)NC(=O)[C@H](CCCCN)NC(=O)[C@H](CCCCN)NC(=O)[C@H](CC(C)C)NC(=O)[C@@H](N)CC(C)C)[C@@H](C)O)C(C)C)C(=O)N[C@@H](CCCCN)C(=O)NCC(=O)N[C@@H](CC(C)C)C(=O)N[C@@H](CC(C)C)C(=O)O; assay = acrylamide quenching; test system = PBS, no lipid; conditions = 2 µM, with: acrylamide; quantity = Stern-Volmer constant; result = 16.5 ± 1.97 M⁻¹
Compound = CSCC[C@@H]1NC(=O)[C@@H]2CSSC[C@H](NC(=O)[C@H](CO)NC(=O)[C@H](C)N)C(=O)N[C@@H](CCCNC(=N)N)C(=O)N[C@@H]([C@@H](C)O)C(=O)N3CCC[C@H]3C(=O)N[C@@H](CCCCN)C(=O)N[C@@H](CC(=O)O)C(=O)N[C@H]3CSSC[C@H](NC(=O)[C@H](CCCCN)NC(=O)[C@H](CCCNC(=N)N)NC(=O)[C@H](CC(N)=O)NC1=O)C(=O)N[C@@H](CCCCN)C(=O)N[C@H]1CSSC[C@H](NC(=O)[C@@H]4CCCN4C(=O)[C@H](CC(=O)O)NC(=O)[C@H](C)NC3=O)C(=O)N[C@@H](C)C(=O)N[C@@H](CCCCN)C(=O)N[C@@H](CCC(=O)O)C(=O)N[C@@H]([C@@H](C)O)C(=O)NCC(=O)N[C@@H](CSSC[C@@H](C(N)=O)NC(=O)[C@H](CCCNC(=N)N)NC(=O)[C@H](CC(N)=O)NC1=O)C(=O)N1CCC[C@H]1C(=O)N[C@@H](Cc1ccc(O)cc1)C(=O)NCC(=O)N[C@@H](CCCCN)C(=O)N2; test system = DA rat, pristane-induced arthritis, serum; conditions = subcutaneous, 0.1 mg/kg every other day, end of 21-day trial; quantity = gamma-glutamyl transferase; result = 1.5 U/L
Compound = COc1cc2ccnc(Cc3ccc(O[11CH3])c(OC)c3)c2cc1OC; test system = Sprague-Dawley rat; conditions = intravenous, 5 min; quantity = liver uptake; result = ~32 % injected dose
Compound = O=c1oc2c(CNCCc3cccc(F)c3)c(O)ccc2c2c1CCC2; test system = porcine brain lipid; conditions = 100 µg/mL, 18 h, pH 7.4; quantity = permeability (Pe); result = 5 ± 0.3 ×10⁻⁶ cm/s
Compound = O=C1C[NH+]2CP(=O)([O-])[O][99Tc-2]2[O]1.[C-]#[O+].[C-]#[O+].[C-]#[O+] (stereo not drawn); assay = radio-HPLC; test system = rat, urine; scale = reference: activity; quantity = intact tracer; result = > 99%
Compound = CC[C@H](C)[C@@H]1NC(=O)[C@H](Cc2c[nH]c3ccccc23)NC(=O)[C@H]([C@@H](C)O)NC(=O)[C@H]([C@@H](C)CC)NC(=O)[C@H](CCSC)NC(=O)CCCC(=O)NCCCC[C@@H](C(N)=O)NC(=O)[C@H](CO)NC(=O)[C@@H]2CCCN2C(=O)[C@H](CO)NC(=O)[C@H]([C@@H](C)CC)NC(=O)[C@H](Cc2ccccc2)NC(=O)[C@H](CC(=O)O)NC1=O; test system = human serum; scale = reference: cyclic over linear peptide; quantity = serum half-life; result = 20 fold
Compound = CC(C)C[C@@H](NC(=O)[C@@H](CCCNC(=N)N)NC(=O)[C@@H](Cc1c[nH]cn1)NC(=O)[C@@H](Cc1c[nH]c2ccccc12)NC(=O)[C@@H](Cc1c[nH]cn1)NC(=O)[C@@H](Cc1ccccc1)NC(=O)[C@H](NC(=O)[C@@H](Cc1ccc(O)cc1)NC(=O)CNC(=O)CNC(=O)CCOCCOCCOCCNC(=O)CN1CCN(CC(=O)O)CCN(CC(=O)O)CC1)[C@H](C)O)C(=O)N[C@H](CC(N)=O)C(=O)N1CCC[C@@H]1C(=O)O [gallium-68 labelled]; assay = PET; test system = human, right lung primary tumour; quantity = SUVmax; result = 4.82 SUV
Compound = O=c1c(Br)c2oc3c(CN(Cc4ccccn4)Cc4ccccn4)c(O)ccc3nc-2c2ccccc12; test system = aqueous buffer; conditions = pH 7.0, metal-free; quantity = excitation maximum; result = 530 nm
Compound = CC[C@H](C)C(=O)N1CCC(NC(=O)Nc2ccc(OC(F)(F)F)c(F)c2)CC1; test system = healthy volunteers; conditions = oral, 2 mg single dose, device site dermatitis; quantity = subjects with dermatitis TEAE; result = 33.3%
Compound = NC(=O)[C@@H](CCCCNC(=O)CNC(=O)CCC(=O)NCCc1c[nH]cn1)NC(=O)[C@@H](Cc1ccc(O)cc1)NC(=O)[C@@H](CCCCNC(=O)CNC(=O)CCC(=O)NCCc1c[nH]cn1)NC(=O)Cc1ccc(CN2CCN(CC(=O)O)CCN(CC(=O)O)CC2)cc1 [fluorine-18 labelled]; test system = human serum; conditions = 4 h, 37 °C; quantity = serum stability; result = stable
Compound = COc1cc(NC(=O)C(=O)c2c(C)n(Cc3ccc(Cl)cc3)c3ccc(C)cc23)ccn1; test system = cynomolgus monkey, male, plasma; conditions = oral, 10 mg/kg; quantity = AUC(0-last); result = 2580 ng·h/mL
Compound = CN[C@](C)(C[18F])C(=O)O; test system = SCID mouse U87 xenograft, lung; conditions = 60 min, post injection; quantity = tissue uptake; result = 1.9 ± 0.8 %ID/g
Compound = CSCC[C@H](NC(=O)CNC(=O)[C@H](CC(=O)O)NC(=O)[C@@H](NC(=O)[C@@H](NC(=O)[C@@H](NC(=O)CNC(=O)[C@H](CCC(N)=O)NC(=O)[C@H](CCSC)NC(=O)[C@H](CC(=O)O)NC(=O)[C@H](C)NC(=O)[C@H](C)NC(=O)[C@@H](NC(=O)[C@H](CO)NC(=O)[C@@H](N)CC(C)C)[C@@H](C)O)C(C)C)C(C)C)[C@@H](C)O)C(=O)N[C@@H](C)C(=O)N[C@@H](CO)C(=O)NCC(=O)N[C@@H](CC(C)C)C(=O)N[C@@H](CC(=O)O)C(=O)N[C@@H](CCCCN)C(=O)N[C@@H](CC(=O)O)C(=O)N[C@@H](Cc1ccc(O)cc1)C(=O)N[C@@H](CC(C)C)C(=O)N[C@@H](CCCCN)C(=O)N1CCC[C@H]1C(=O)N[C@@H](CC(=O)O)C(=O)N[C@@H](CC(=O)O)C(=O)O; test system = human, serum; conditions = intravenous, 2.5 mg/kg, patients, infusion; quantity = Vd; result = 0.529 L/kg
Compound = N#Cc1c(O)c(Cl)c(Cl)c(C#N)c1Cl; test system = healthy human volunteers, plasma; conditions = oral, dose not given, 0 h, geometric mean, with: rosuvastatin; quantity = rosuvastatin C0; result = 2.64 ng/mL
Compound = CC=C(C)C(=O)OC1C2C3(C)CCC(OC4CC(OC)C(OC5OC(C)C(O)C(OC)C5O)C(C)O4)CC3CCC23OC32CCC(C(C)=O)C2(C)C1OC(C)=O (stereo not drawn); test system = Caco-2; conditions = 10 µM; quantity = Papp A→B; result = 6.38 ×10⁻⁶ cm/s
Compound = CN(C)C(CNC(=O)Nc1cc(C(F)(F)F)ccc1N1CCOCC1)c1ccncc1 (stereo not drawn); test system = mouse, serum; conditions = intraperitoneal, 240 mg/kg single dose; quantity = serum GGT; result = < 3 U/L
Compound = C/C=C/C=C/C/C=C/CCCCCCCc1cccc(O)c1O; test system = female Kunming mice, tumour-bearing, heart; conditions = intravenous, 10 mg/kg, 2 h; quantity = tissue concentration; result = 8130 ± 1020 ng/g
Compound = O=C(CN1CCN(c2cc3c(cc2F)c(=O)c(C(=O)O)cn3C2CC2)CC1)Nc1ccc(Cl)cc1; test system = BALB/c mice, female, plasma; conditions = iv, 1.25 mg/kg; quantity = AUC(0-t); result = 88200 ng·h/mL
Compound = COC(=O)C[C@](O)(CCCC(C)(C)OC(C)=O)C(=O)O[C@@H]1C(OC)=C[C@]23CCCN2CCc2cc4c(cc2[C@H]13)OCO4; test system = CD1 mouse, pancreas; conditions = subcutaneous, 1 mg/kg, 0.5 h; quantity = tissue concentration; result = 405 ng/mL
Compound = CC(C)[C@H]1NC(=O)C[C@H]2/C=C/CCSSC[C@@H](NC1=O)C(=O)N[C@H](Cc1cccc3ccccc13)C(=O)NCC(=O)O2; test system = nude mouse, blood; conditions = intravenous, 4 mg/kg; quantity = C0; result = 46.8 ng/mL
Compound = CC(C)C[C@H](NC(=O)[C@H](CCCCN)NC(=O)[C@H](CCC(=O)O)NC(=O)[C@H](C)NC(=O)[C@@H](NC(=O)[C@H](CCCCN)NC(=O)[C@H](CC(=O)O)NC(=O)[C@H](Cc1ccc(O)cc1)NC(=O)[C@H](Cc1ccccc1)NC(=O)[C@H](C)NC(=O)[C@H](CCCCN)NC(=O)[C@H](CC(C)C)NC(=O)[C@H](Cc1c[nH]c2ccccc12)NC(=O)[C@@H](N)CC(=O)O)C(C)C)C(=O)N[C@@H](CCCCN)C(=O)N[C@@H](CCC(=O)O)C(=O)N[C@@H](C)C(=O)N[C@@H](Cc1ccccc1)C(=O)N1CCC[C@H]1C(=O)N[C@@H](CC(=O)O)C(=O)N[C@@H](Cc1c[nH]c2ccccc12)C(=O)N[C@@H](C)C(=O)N[C@@H](CCCCN)C(=O)N[C@@H](C)C(=O)N[C@@H](C)C(=O)N[C@@H](Cc1ccc(O)cc1)C(=O)N[C@@H](CC(=O)O)C(=O)N[C@@H](CCCCN)C(=O)N[C@@H](C)C(=O)N[C@@H](C)C(=O)N[C@@H](CCC(=O)O)C(=O)N[C@@H](CCCCN)C(=O)N[C@@H](C)C(=O)N[C@@H](CCCCN)C(=O)N[C@@H](CCC(=O)O)C(=O)N[C@@H](C)C(=O)N[C@@H](C)C(=O)O; test system = cynomolgus monkey male, plasma; conditions = intravenous infusion, 8 mg/kg, day 1, 30 min infusion; quantity = AUC(0-last); result = 324000 ng·h/mL
Compound = c1ccc(C2(CCNC3CCC4(SCCS4)c4ccccc43)CCOC3(CCCC3)C2)nc1 (stereo not drawn); test system = rat, brain homogenate; quantity = fraction unbound; result = 0.0048
